Results collected from several papers.
Parts stem from different laboratories: compare values within a part only. Positions count from the first letter of the parent shown.

Set 1 — method: protein binding microarray; form: double-stranded DNA, one strand shown; medium: in vitro; tested at: not given; baseline: not given; direction: higher = stronger binding
Target: Histone acetyltransferase KAT6A, winged helix 2, GST fusion (KAT6A, Homo sapiens, UniProt Q92794, residues 85-181)
Setting: 8-mer, flanks averaged, mean of 2 arrays, mostly near background
Construct (chain): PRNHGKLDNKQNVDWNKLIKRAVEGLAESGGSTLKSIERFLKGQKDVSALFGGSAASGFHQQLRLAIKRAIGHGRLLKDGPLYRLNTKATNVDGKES
| Sequence | E-score |
| --- | --- |
| TTTCAAAA | 0.197 |
| CAGCTGCG | 0.133 |
| GGGCGACC | 0.0426 |
| CCTGTAAG | -0.152 |
| ATAGAGCA | 0.162 |
| TACCGTAA | -0.139 |
| CGCACTCC | -0.0413 |
| AGGCCTCC | 0.0213 |
| AAGGAAAA | 0.0861 |
| AGTCCTCA | -0.116 |
| GAGGAGAA | -0.102 |
| TAGCTAGA | -0.0347 |
| CCTCTTCC | -0.122 |
| AGCCGGTG | 0.195 |
| GGTGGTGA | -0.0108 |
| TCTGAGAA | -0.0131 |
| ATCGTCGG | -0.0564 |

Set 2 — target: CCNB1, cyclin fold, Cln2 fusion (human); method: yeast growth competition, sequencing; medium: yeast; setting: strong parent motif; baseline: not given; direction: higher = stronger binding
Parent: MICAL3 docking peptide (human); LQLRRQLSFSEDS
| Substitution | normalised enrichment score |
| --- | --- |
| LKLRRQLSFSEDS [Q2K] | 5.39 |
| LQLRRQLSFSHDS [E11H] | 2.04 |
| LQLRRQLSFSTDS [E11T] | 3.07 |
| LQLRIQLSFSEDS [R5I] | 0.404 |
| LQLRRQHSFSEDS [L7H] | 0.372 |
| LILRRQLSFSEDS [Q2I] | 3.98 |
| LQLRYQLSFSEDS [R5Y] | 0.837 |
| LQLRRMLSFSEDS [Q6M] | 4.2 |
| LQLRRQLGFSEDS [S8G] | 0.19 |
| LQMRRQLSFSEDS [L3M] | 2.85 |
| LQLRRQLSYSEDS [F9Y] | 3.76 |
| LQLRRQLSFREDS [S10R] | 2.98 |
| LQLRCQLSFSEDS [R5C] | 0.752 |

Set 3 — method: RNA Bind-n-Seq; form: RNA; medium: in vitro; tested at: 365 nM; baseline: no-protein control; direction: higher = stronger binding
Target: RNA binding protein fox-1 homolog 2, RRM domain, GST-SBP tag (RBFOX2, Homo sapiens, UniProt O43251-10, residues 100-194)
Setting: natural RNA segment, single round, ends assumed
Shared flanks, not repeated: GGGAGUUCUACAGUCCGACGAUC … UGGAAUUCUCGGGUGCCAA
Construct (chain): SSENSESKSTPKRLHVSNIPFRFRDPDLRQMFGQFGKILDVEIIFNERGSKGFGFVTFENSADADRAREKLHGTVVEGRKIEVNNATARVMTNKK
| Sequence | RBNS enrichment (R) |
| --- | --- |
| GGUGUUUAAGUGUUCUGAUAACCUGCUUUUAAUAGUUGUGUAUGCCAAAGUCUUUCCCAGCACCUCUUGUAUUCAUUAUCAAAUAUAUACAUGUAAGUUUGAAGUAUUAC | 0.474 |
| CUGAGCCCACAGAAAGAGCCAGGAAAGCAUUAACAGAAAAGCCUGUCAGGACAUGUCCACCACUGGUCAGAAACUCUUCUUCCCGUGGAACCAAAUGUCCCAGACUCUCU | 0.293 |
| GAAUGGUUUACAUAUUUCUGCAAAUGGAGAAAAUGUAAAUAUAAACCCAUGACCAUUUACUAAGUGAAUGAUGUAUAUUUCCCAUUAUCAGAAGUAUAAUGAAGUUGGAA | 0.428 |
| CAGGUUACUUCUCUCCGCAGGGGCUGAAGACAGAUGUGUCAGCCCAUGGGAACCAGCCUGGGCCCUAGUGGAGGGUCCUGGUAGCUGCAGACCAGAGCCUCACACCUCUG | 0.453 |
| ACCCGCUGCGUGUGUGUGCGCGCGCGUGUACGUGUGGCCCCACAUCCGCCGCCUUCCACGCUAGGAUGUAAGAGGUCGCCUCCUAUUGUACAUUUGGGGAAAGCCUUGGG | 0.318 |
| UCCGCCGCCUGCCCCAGUGUGGGGGGAGAUACCUUUACCAUGAACUUACAGAAUUAAAGAUGGCCCAUAAGGAAUUCCAGACCAAUAUUUCUUCCUGCGGUUUAUUCUAU | 0.436 |
| AUAAUAGGUAUAUUAACUGAAUUUCAUUAGUUUUUUAAAAUAAUAUUGUUUGUGUAUAUAUACAUAUAAAAUAAAAACAUUUACAACAAAUAAAAUACUUGAAAUUCUUG | 0.86 |
| CAGUUAAUGGCACUGCUCACUUCCUGCCUCUGCUGCCACCAUCACUGUGUGAAGCUUUCAAGAGCUUGGUACUUCCCAGGGCUACCGGCAGUCCUCUGUAGUCCAGAGAG | 0.23 |
| ACUGUCCCAAAUCUGGAAGGUCCAGAGUAAGCAGGAUUCAGGGAGAGGGAGUGGAUAGCAAGUAUCCCAAGAAACCAACCUGUAAGUCAGGUCCAGCCAGUCCAAGCACA | 2.31 |
| AAGCCUCCAAUGUAUUACCUACCAUGCGCAUGAAUAAUUUUCUUCCAUGGCUUUUACACUGUCAACGGCUUUACCUACUUUUUAAAAUUAAGUCUUUGAUUUUAUGAUUU | 0.323 |
| CUAUCCUUUAUGCAGUAUACAAGGAGAACUGUCCUGUAGGAUAUUCUCUUCCUGAUGGUGCAGAACCCAGAAUUAGAAGUUUGUGGUUACAGCAUACUCUGUCCUUCAGA | 0.287 |
| AAAACAUCAGUUUCCUCUCAUACAUUCCAAGUAAACCAAGUAAAAUAAGUGUUGGAGUAACACUUGCAUAAAAGAAUUUAAGGAGUGAUAGCUCUUUCUGUUCUGCCAUU | 0.393 |

Set 4 — method: RNA Bind-n-Seq; form: RNA; medium: in vitro; tested at: 1 µM; setting: whole 134-nt RNA, ends assumed; added: 150 mM KCl; baseline: input library; direction: higher = stronger binding
Target: Ras GTPase-activating protein-binding protein 1, RRM domain (G3BP1, Homo sapiens, UniProt Q13283)
UniProt Q13283, sequence (whole entry, looked up): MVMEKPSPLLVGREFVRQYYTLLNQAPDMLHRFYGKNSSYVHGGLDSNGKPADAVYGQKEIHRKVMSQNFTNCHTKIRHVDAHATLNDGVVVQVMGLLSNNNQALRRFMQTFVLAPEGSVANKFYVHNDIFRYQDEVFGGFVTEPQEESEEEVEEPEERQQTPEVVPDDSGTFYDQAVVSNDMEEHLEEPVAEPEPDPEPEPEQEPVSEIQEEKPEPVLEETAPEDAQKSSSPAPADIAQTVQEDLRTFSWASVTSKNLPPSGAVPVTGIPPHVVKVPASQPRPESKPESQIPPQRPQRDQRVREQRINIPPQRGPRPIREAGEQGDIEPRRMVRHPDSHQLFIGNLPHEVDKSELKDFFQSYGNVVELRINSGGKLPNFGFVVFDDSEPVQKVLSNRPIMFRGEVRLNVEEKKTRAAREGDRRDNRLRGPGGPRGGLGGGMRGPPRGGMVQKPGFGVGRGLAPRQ
Shared flanks, not repeated: GGGAGUUCUACAGUCCGACGAUC … UGGAAUUCUCGGGUGUCAAGG
| Sequence | log2 enrichment |
| --- | --- |
| UCAAGUCCUGUGCUACACAUCGUAUGUACCGAAUCGGGCCGGGGCCGGCCGGGGAAAGUAUUAUGUUACGCCGUUCGGAUCUGCACUUCC | -0.504 |
| ACCAUGCAGGUGGGCAUCUUUGGGAAGUGGGGCAAGGGGGGGAUAGGGAGGGGGGUAACACUUUGGGAACAGGUGGUCCCAGGUCGUUUU | 0.981 |
| UGUGAACUUGUAUGUGAAGAAUCUGGACGACUCCAUUGAUGACGACAAACUGAGGAAAGAGUUCUCUCCCUAUGGAGUAAUUACCAGUGC | 0.00438 |
| AGUCCUGUGCUACACAUCGUAUGUACCGAAUCGGGGCCCCCGGCCCCCGGCCCCCGGGAAAGUAUUAUGUUACGCCGUUCGGAUCUGCAC | -0.37 |
| AGUCCUGUGCUACACAUCGUAUGUACCGAAUCGGGGAAAAAGGGGAGGGGUUUGGGGAAAGUAUUAUGUUACGCCGUUCGGAUCUGCACU | 0.783 |
| GUCCUGUGCUACACAUCGUAUGUACCGAAUCGGGUGGGUUUUUUUGGGUUUUUUUGGGAAAGUAUUAUGUUACGCCGUUCGGAUCUGCAC | 0.217 |
| CCUGUGCUACACAUCGUAUGUACCGAAUCAAACCCCCAAACCCCCCCAAACCCCCCCAAAAAAGUAUUAUGUUACGCCGUUCGGAUCUGC | -0.0905 |
| UCAAGUCCUGUGCUACACAUCGUAUGUACCGAAUCGGUGGUUUUUUUGGAAAGGAAAGUAUUAUGUUACGCCGUUCGGAUCUGCACUUCC | -0.178 |
| UCCUGUGCUACACAUCGUAUGUACCGAAUCGGGUUUUUUUGGGUUUUUGGGUUUUUGGGAAAGUAUUAUGUUACGCCGUUCGGAUCUGCA | -0.0916 |
| CUGUGCUACACAUCGUAUGUACCGAAUCGGGGUUUGGGGUUUUUUUGGGGUUUUUUUGGGGAAAGUAUUAUGUUACGCCGUUCGGAUCUG | 1.14 |
| UCAAGUCCUGUGCUACACAUCGUAUGUACCGAAUCGGUUUUUGGUGGUUUUUGGAAAGUAUUAUGUUACGCCGUUCGGAUCUGCACUUCC | -0.224 |
| UCCUGUGCUACACAUCGUAUGUACCGAAUCGGGGUUUUUUGGUUUUUUGGGGUUUUUUGGAAAGUAUUAUGUUACGCCGUUCGGAUCUGC | -0.146 |
| UGGGAGGUGGAUUUUGUUUAUUUUUUUAGCUCAUUUCAAGGGGUGGGAAUUUUUUUUUAAUAUGUGUCAUGAAUAAAGUUGUUUUUGAAA | 2.05 |
| UCAAGUCCUGUGCUACACAUCGUAUGUACCGAAUCGGUUUUUUUGGUGGAAAGGAAAGUAUUAUGUUACGCCGUUCGGAUCUGCACUUCC | -0.159 |

Set 5 — method: universal PBM; form: double-stranded DNA, one strand shown; medium: in vitro; tested at: not given; direction: higher = stronger binding
Target: Sal-like protein 4, full length isoform B (SALL4, Homo sapiens, UniProt Q9UJQ4-2, residues 1-616)
Setting: 8-mer, flanks averaged, mean of replicates
| Sequence | E-score |
| --- | --- |
| ACAAATCG | -0.0549 |
| GCAGTACC | -0.0749 |
| CAGTCGGA | -0.17 |
| TGCGGTAA | 0.178 |
| ATCTAGAG | 0.0271 |
| ACGTAGAG | -0.0235 |
| ACGAAACA | -0.041 |
| ACCTCGAT | -0.0787 |
| ATTCAAGA | 0.222 |
| AATGATAA | 0.345 |
| TAGGATCA | -0.0569 |
| GCAACTTA | 0.0777 |
| AGGTGGTC | -0.13 |
| AAGGCATC | -0.154 |
| GAGTTAGA | -0.0549 |
| ACCCTGAT | -0.0136 |
| CCGCCGAC | -0.314 |
| ACCCACAG | -0.104 |
| ATAGTCTC | 0.0831 |
| CAAGGTCC | -0.235 |
| GCTCCGTA | -0.125 |
| CGGCCTAG | -0.312 |
| CAGATTAC | 0.135 |
| TCGTAGAA | 0.0575 |
| ACACGATC | -0.0696 |

Repeated from above (set 1):
| Sequence | E-score |
| --- | --- |
| CCTGTAAG | -0.152 |
| ATAGAGCA | 0.162 |
| TACCGTAA | -0.139 |
| CGCACTCC | -0.0413 |
| AGGCCTCC | 0.0213 |
| AAGGAAAA | 0.0861 |
| AGTCCTCA | -0.116 |
| GAGGAGAA | -0.102 |
| TAGCTAGA | -0.0347 |
| CCTCTTCC | -0.122 |
| AGCCGGTG | 0.195 |
